Measurements gathered from unrelated publications.
Lines come from different studies, so protocols differ. Numbers after ± are the reported error.
Sequence of UniProt P37136 (whole entry, looked up): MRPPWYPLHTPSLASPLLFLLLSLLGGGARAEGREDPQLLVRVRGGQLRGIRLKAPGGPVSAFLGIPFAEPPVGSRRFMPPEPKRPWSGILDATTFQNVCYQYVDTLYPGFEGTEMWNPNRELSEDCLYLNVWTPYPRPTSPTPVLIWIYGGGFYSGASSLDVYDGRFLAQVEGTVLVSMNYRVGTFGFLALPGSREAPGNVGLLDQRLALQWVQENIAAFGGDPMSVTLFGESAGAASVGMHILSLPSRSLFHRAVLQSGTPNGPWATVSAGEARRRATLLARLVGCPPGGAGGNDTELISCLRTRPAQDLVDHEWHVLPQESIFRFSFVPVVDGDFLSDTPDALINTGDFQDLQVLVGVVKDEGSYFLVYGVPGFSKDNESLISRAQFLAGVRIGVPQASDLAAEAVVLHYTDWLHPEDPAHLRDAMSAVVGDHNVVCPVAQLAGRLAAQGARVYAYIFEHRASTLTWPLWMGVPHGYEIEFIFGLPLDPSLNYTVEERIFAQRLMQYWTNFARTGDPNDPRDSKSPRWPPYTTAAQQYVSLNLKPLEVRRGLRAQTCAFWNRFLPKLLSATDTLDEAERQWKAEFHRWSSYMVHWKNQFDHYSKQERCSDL

Substance = chicoric acid; test = UPLC; system = broiler chicken, plasma; setting = oral gavage, 20 mg/kg; quantity = terminal half-life; result = 4.26 ± 1.33 h
Substance = phoxim-oxon; tested on = Acetylcholinesterase (Ache, Rattus norvegicus, UniProt P37136); test = inhibitor; system = rat, postnatal day 12, rat serum; quantity = IC50; result = 0.031 µM
Substance = deucravacitinib; system = human volunteers; setting = dose not given, single ascending dose; quantity = subjects with gastrointestinal adverse events; result = 23.3%
Substance = semaglutide; test = measured: action not applicable; system = human, safety analysis set; setting = concentration not given, 32 weeks, run-in; quantity = participants with adverse events; result = 2.1%
Substance = maraviroc; system = black CYP3A5 intermediate metabolizers, plasma; setting = 300 mg twice daily; quantity = Tmax; result = 2 h

Excerpt of the above:
Substance = semaglutide; test = measured: action not applicable; system = human, safety analysis set; setting = concentration not given, 32 weeks, run-in; quantity = participants with adverse events; result = 2.1%
